Results of several laboratories.
Values joined by “and” are separate records of one study, mostly repeats; a detail may differ. ± marks the error that the study gave.
ERBB4: Receptor tyrosine-protein kinase erbB-4 (ERBB4, Homo sapiens, UniProt Q15303)

CN(C)[C@H]1C[C@@]23CC[C@@]4(O2)C(=CC[C@]2(C)[C@@H](c5ccc6ccncc6c5)CC[C@H]24)C=C3[C@@H](O)[C@@H]1O
inhibition (Wee1-like protein kinase (WEE1, Homo sapiens, UniProt P30291); ATP probe labelling, inhibitor, KiNativ profiling; 0.1 µM): -8.5%

CC(C)C[C@H](NC(=O)[C@H](CC(C)C)NC(=O)[C@H](CCCCN)NC(=O)[C@H](Cc1ccccc1)NC(=O)[C@@H](NC(=O)[C@H](CCCNC(=N)N)NC(=O)[C@@H](N)CCCCN)C(C)C)C(=O)N[C@@H](CCCCN)C(=O)N[C@@H](CCCNC(=N)N)C(=O)N[C@@H](Cc1ccc(O)cc1)C(=O)N[C@@H](Cc1c[nH]c2ccccc12)C(=O)N[C@@H](CCCNC(=N)N)C(=O)N[C@@H](CCC(N)=O)C(=O)N[C@@H](CC(C)C)C(=O)N[C@@H](CCCCN)C(=O)N[C@@H](CCCCN)C(=O)N1CCC[C@H]1C(=O)N[C@H](C(=O)N[C@@H](CCCNC(=N)N)C(=O)NCCOCCOCC(=O)O)C(C)C
elastase activity (Pseudomonas aeruginosa; ATCC 10145-GFP; sub-MIC, 24 h; reference: untreated): decreased

COc1ccccc1C(C[N+](=O)[O-])c1c(-c2ccccc2)[nH]c2ccccc12 (stereo not drawn)
delta log(tau/KA) (Cannabinoid receptor 1 (CNR1, Homo sapiens, UniProt P21554, N393A); G protein activation): -0.25 ± 0.03

O=C1NC2(CC2)COc2ncc(F)cc2[C@H]2COCCN2c2ccn3ncc1c3n2
organ-to-brain weight ratio (Sprague-Dawley rat, male, liver; oral, 10 mg/kg/day, 4 weeks dosing, end of recovery): 678 ± 45.8%

Cc1sc2c(c1C)C(c1ccc(Cl)cc1)=NC(CC(=O)OC(C)(C)C)c1nnc(C)n1-2 (stereo not drawn)
remaining binding (Type-1 angiotensin II receptor (AGTR1, Homo sapiens, UniProt P30556); ligand displacement, radioligand; 1 µM): 100%

CC(C)CC(O)(CC(C)C)c1cn(C(=O)N2CCCC2)nn1
activity ratio-of-ratios (Protein SERAC1 (Serac1, Mus musculus, UniProt Q3U213); probe labelling, inhibitor, measured: Serac1; mouse, brain; i.p., 0.8 mg/kg, 4 h, protein level; reference: treated over vehicle mice, lower = stronger inhibition): 2.02

O=C1NC(=O)c2c1c1cc(F)c[n+]3c1c1c2c2cc(O)ccc2[n]1[Ru-4]312([N]=C=S)[S+]3CC[S+]1CC[S+]2CC3 (stereo not drawn)
remaining activity (ERBB4; enzyme activity; 100 nM, human enzyme, together with: 10 µM ATP; reference: untreated): 109%

N[C@H](C(=O)N1CCCC1)C1CCN(c2nccc3c(-c4ncc(Cl)cc4Cl)cccc23)CC1
kcat (Protein-arginine deiminase type-4 (PADI4, Homo sapiens, UniProt Q9UM07); enzyme activity; 0.01573 µM, low-affinity site, together with: Ca2+ 0.25 mM): 0.668 s⁻¹ and 0.72 s⁻¹

Cc1ccc2c(C(C[N+](=O)[O-])c3cccs3)c(-c3ccccc3)[nH]c2c1 (stereo not drawn)
inhibition (Cannabinoid receptor 1 (CNR1, Homo sapiens, UniProt P21554, I169A); β-arrestin2 recruitment, NanoBiT; concentration not given): inhibited

CS(C)(=O)=Nc1ccc(-c2ccc(-c3nc4cc(O[C@@H]5CO[C@H]6[C@@H]5OC[C@H]6O)[nH]c4cc3F)cc2)cc1
inhibition (Serine-protein kinase ATM (ATM, Homo sapiens, UniProt Q13315); enzyme activity, inhibitor; 10 µM): 7%

Nc1ccc(/C=C/C(=O)N2CCc3c(oc4c(-c5ccc(F)cc5)cc(-c5ccc(C(=O)N6CCC(F)(F)CC6)cn5)cc34)C2)cn1
remaining binding (ERBB4; binding, competition with immobilised ligand; 1 µM): 100%

CC(C)[C@H]1NC(=O)C[C@H]2/C=C/CCSSC[C@@H](NC1=O)C(=O)N[C@H](Cc1cccc3ccccc13)C(=O)NCC(=O)O2
inhibition (Fibroblast growth factor receptor 1 (FGFR1, Homo sapiens, UniProt P11362, V561M); enzyme activity, inhibitor; 10 µM): -5.9%

A few entries again:
CC(C)[C@H]1NC(=O)C[C@H]2/C=C/CCSSC[C@@H](NC1=O)C(=O)N[C@H](Cc1cccc3ccccc13)C(=O)NCC(=O)O2
inhibition (Fibroblast growth factor receptor 1 (FGFR1, Homo sapiens, UniProt P11362, V561M); enzyme activity, inhibitor; 10 µM): -5.9%

COc1ccccc1C(C[N+](=O)[O-])c1c(-c2ccccc2)[nH]c2ccccc12 (stereo not drawn)
delta log(tau/KA) (Cannabinoid receptor 1 (CNR1, Homo sapiens, UniProt P21554, N393A); G protein activation): -0.25 ± 0.03
